Experimental data of several laboratories.
Each line is one published result; not all experiments were run side by side. Numbers after ± are the reported error.
MAL12: Alpha-glucosidase MAL12 (MAL12, Saccharomyces cerevisiae S288c, UniProt P53341)
UniProt P53341, sequence (whole entry, looked up): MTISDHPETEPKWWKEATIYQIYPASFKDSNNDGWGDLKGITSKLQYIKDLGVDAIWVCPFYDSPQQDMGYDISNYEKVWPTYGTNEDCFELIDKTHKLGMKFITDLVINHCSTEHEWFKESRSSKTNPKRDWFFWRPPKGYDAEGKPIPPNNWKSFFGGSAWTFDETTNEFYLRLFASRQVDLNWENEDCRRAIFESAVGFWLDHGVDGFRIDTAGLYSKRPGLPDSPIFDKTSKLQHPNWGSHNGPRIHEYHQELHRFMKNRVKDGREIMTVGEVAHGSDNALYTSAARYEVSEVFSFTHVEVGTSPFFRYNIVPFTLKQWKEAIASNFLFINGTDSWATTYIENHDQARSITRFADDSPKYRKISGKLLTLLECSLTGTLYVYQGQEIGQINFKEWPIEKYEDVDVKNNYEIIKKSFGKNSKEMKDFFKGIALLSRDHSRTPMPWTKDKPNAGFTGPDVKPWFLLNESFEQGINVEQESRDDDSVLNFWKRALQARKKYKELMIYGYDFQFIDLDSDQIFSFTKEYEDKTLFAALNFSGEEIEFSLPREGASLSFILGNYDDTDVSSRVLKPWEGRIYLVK
WWOX WW1 domain: WW domain-containing oxidoreductase, WW1 domain (WWOX, Homo sapiens, UniProt Q9NZC7)
UniProt Q9NZC7, sequence (whole entry, unmodified, looked up): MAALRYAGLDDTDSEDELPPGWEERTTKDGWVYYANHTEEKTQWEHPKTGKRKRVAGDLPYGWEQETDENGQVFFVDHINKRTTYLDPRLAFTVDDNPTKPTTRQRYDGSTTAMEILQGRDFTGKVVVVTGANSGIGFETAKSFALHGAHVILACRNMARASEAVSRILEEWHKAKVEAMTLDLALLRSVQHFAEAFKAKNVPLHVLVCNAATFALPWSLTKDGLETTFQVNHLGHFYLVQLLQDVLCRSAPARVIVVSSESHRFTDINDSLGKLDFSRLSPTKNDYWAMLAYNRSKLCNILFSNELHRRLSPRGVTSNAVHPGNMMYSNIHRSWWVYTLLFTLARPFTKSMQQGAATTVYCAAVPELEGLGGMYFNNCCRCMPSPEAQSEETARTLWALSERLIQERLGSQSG
HBA1 with sickle beta chain: Hemoglobin subunit alpha, with sickle beta chain (HBA1, Homo sapiens, UniProt P69905)
UniProt P69905, sequence (whole entry, looked up): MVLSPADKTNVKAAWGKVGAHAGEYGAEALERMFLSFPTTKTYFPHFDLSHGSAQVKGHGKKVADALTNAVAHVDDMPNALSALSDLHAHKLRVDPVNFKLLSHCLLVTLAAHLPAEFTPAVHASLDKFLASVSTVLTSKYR
SCN9A: Sodium channel protein type 9 subunit alpha (SCN9A, Homo sapiens, UniProt Q15858)
UniProt Q15858, sequence (whole entry, looked up): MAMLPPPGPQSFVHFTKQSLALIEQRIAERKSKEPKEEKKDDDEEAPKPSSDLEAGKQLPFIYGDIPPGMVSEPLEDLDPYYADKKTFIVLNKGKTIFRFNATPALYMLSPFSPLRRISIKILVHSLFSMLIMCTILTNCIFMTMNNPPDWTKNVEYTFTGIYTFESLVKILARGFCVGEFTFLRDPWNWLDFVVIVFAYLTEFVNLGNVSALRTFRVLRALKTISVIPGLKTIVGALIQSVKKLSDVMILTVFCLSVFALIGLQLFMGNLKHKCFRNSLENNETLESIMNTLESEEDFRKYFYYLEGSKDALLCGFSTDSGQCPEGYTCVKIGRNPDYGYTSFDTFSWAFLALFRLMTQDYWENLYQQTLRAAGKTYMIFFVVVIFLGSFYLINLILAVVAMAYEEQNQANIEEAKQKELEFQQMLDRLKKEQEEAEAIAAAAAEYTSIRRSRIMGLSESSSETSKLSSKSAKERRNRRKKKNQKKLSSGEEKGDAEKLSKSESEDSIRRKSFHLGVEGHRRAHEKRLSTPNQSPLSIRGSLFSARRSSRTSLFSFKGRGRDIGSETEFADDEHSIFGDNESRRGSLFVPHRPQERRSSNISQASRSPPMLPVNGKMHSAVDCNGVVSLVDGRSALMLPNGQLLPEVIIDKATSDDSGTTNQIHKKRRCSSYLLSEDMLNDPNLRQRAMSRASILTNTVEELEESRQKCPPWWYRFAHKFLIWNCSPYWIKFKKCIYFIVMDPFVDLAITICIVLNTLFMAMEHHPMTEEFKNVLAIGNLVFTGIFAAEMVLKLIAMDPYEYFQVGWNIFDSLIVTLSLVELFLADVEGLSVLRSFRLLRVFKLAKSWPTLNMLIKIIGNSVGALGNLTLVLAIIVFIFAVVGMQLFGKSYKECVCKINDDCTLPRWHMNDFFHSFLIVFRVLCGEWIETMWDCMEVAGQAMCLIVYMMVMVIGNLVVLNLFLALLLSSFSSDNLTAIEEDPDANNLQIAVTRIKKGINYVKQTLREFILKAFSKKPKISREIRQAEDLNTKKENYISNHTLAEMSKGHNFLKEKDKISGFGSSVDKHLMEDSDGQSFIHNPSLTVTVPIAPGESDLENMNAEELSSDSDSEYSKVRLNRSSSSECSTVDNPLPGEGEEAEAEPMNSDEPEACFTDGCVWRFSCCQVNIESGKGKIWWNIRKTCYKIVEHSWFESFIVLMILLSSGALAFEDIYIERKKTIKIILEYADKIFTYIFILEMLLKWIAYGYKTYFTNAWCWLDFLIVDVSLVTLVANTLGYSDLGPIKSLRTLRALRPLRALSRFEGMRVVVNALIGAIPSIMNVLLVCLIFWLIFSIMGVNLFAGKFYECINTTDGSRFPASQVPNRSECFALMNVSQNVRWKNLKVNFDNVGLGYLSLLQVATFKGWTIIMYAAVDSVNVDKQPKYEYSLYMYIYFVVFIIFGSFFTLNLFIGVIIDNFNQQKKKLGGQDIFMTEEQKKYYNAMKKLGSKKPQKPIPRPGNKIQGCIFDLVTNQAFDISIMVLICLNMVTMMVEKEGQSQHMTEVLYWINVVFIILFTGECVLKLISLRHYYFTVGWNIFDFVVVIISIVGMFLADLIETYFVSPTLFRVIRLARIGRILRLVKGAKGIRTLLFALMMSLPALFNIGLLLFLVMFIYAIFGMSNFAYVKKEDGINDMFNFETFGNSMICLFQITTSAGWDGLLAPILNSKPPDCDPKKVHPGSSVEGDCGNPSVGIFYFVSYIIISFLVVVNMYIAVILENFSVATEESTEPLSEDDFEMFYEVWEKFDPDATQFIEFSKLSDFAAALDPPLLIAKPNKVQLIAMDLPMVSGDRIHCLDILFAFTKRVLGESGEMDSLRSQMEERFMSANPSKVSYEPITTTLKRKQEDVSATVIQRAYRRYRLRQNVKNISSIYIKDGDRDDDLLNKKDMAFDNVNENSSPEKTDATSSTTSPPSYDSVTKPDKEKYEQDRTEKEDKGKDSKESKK
T1: RNA repeat, r(CGG) repeat (Homo sapiens); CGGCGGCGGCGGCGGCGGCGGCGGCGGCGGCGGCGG
UniProt P0DMV8, sequence (whole entry, looked up): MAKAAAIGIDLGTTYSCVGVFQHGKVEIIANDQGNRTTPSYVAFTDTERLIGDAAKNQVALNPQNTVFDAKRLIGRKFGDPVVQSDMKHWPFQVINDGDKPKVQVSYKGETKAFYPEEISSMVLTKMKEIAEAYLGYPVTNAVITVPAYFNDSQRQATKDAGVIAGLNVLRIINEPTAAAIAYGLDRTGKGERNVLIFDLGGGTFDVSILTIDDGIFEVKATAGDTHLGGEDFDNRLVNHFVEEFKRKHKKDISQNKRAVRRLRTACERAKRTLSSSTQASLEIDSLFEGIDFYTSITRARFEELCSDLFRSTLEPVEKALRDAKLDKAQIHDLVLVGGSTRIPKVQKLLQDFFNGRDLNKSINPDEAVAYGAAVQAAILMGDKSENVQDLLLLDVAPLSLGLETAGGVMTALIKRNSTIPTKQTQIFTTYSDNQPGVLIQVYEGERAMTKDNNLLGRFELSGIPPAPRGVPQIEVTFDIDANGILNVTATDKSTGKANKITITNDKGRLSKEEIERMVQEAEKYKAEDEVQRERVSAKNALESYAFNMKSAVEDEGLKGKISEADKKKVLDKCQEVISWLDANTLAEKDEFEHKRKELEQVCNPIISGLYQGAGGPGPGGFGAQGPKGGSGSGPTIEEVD
UniProt P07148, sequence (whole entry, looked up): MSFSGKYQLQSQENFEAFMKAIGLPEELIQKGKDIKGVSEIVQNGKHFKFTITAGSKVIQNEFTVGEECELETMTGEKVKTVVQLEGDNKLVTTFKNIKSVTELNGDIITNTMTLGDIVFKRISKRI
UniProt Q01727, sequence (whole entry, looked up): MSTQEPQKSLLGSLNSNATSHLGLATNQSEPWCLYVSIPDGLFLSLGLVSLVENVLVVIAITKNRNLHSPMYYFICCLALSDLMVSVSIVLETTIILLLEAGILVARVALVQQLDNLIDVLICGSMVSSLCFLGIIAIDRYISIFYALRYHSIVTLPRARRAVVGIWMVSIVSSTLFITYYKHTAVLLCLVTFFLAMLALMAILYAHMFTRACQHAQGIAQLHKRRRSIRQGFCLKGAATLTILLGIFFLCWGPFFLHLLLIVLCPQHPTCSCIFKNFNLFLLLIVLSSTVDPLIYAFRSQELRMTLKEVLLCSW
UniProt Q14123, sequence (whole entry, looked up): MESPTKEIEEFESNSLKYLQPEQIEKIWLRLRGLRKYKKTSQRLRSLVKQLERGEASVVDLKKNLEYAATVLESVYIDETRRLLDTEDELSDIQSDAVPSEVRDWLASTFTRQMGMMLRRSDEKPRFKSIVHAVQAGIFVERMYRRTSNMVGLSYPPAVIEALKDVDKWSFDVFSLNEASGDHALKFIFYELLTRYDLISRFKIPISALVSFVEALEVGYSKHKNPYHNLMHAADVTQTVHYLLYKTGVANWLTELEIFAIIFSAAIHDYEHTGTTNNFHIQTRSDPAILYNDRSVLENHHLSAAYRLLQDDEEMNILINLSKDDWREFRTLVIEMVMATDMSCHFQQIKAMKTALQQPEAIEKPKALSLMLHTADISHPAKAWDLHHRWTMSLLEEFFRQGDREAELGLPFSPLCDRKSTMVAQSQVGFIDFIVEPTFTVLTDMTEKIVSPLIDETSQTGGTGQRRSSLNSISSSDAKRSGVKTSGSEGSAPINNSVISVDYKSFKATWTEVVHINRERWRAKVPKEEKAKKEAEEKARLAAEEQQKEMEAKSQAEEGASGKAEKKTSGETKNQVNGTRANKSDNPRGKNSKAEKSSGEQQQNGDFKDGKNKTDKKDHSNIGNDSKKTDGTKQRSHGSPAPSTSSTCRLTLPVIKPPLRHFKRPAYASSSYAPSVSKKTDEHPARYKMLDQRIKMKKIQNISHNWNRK

For COc1c(-c2ccc(O)cc2)oc2c(OC)c(O)cc(O)c2c1=O, the inhibition was 82.5 ± 0.8% (MAL12; enzyme activity, p-nitrophenyl glucoside substrate; 10 µM, series down to 1 µM).
For CC1=C(C(=O)OCc2ccccc2)C(c2ccc(-c3ccccc3)cc2)NC(=S)N1Cc1ccc(-c2nnn[nH]2)cc1 (centres unmarked), “fold change in activity” read -1.4 fold (Heat shock 70 kDa protein 1A (HSPA1A, Homo sapiens, UniProt P0DMV8); ATPase activity, inhibitor; 100 µM, without Hsp40; relative to: DMSO, negative means inhibition).
The ΔG of CSCC[C@H](NC(=O)[C@@H]1CCCN1C(=O)[C@@H](NC(=O)[C@H](Cc1ccc(O)cc1)NC(=O)[C@H](C)NC(=O)[C@@H]1CCCN1C(=O)[C@@H]1CCCN1C(=O)[C@@H]1CCCN1C(=O)[C@H](CO)NC(=O)[C@H](Cc1c[nH]cn1)NC(=O)CN)[C@@H](C)O)C(=O)N[C@@H](CO)C(=O)O is reported as -4.38 ± 0.05 kcal/mol (WW domain-containing oxidoreductase, WW2 domain Y85W (WWOX, Homo sapiens, UniProt Q9NZC7, Y85W); binding, ITC; pH 7.0, 25 °C).
COc1ccc(-c2cc(=O)c3c(O)cc(OC)cc3o2)cc1 gave an inhibition of 52% (MAL12; enzyme activity, inhibitor, absorbance; 250 µM).
CC[C@H](C)[C@H](NC(=O)[C@@H]1CCCN1C(=O)[C@@H]1CCCN1C(=O)[C@@H]1CCCN1C(=O)[C@@H](NC(=O)[C@H](CC(N)=O)NC(=O)[C@@H](N)Cc1ccccc1)[C@@H](C)CC)C(=O)N[C@@H](Cc1ccc(O)cc1)C(=O)N[C@H](C(=O)N[C@@H](CO)C(=O)N[C@@H](CCCNC(=N)N)C(=O)N[C@@H](C)C(=O)O)[C@@H](C)O gave a TΔS of -2.21 ± 0.43 kcal/mol (WWOX WW1 domain; binding, ITC; pH 7.0, 25 °C).
N[C@@H](CCC(=O)Nc1ccc(-c2ccc(F)cc2)cc1)C(=O)O gave a [3H]-L-serine uptake of 95 ± 2% (Neutral amino acid transporter B(0) (SLC1A5, Homo sapiens, UniProt Q15758); PC-3; concentration not given, 5 min, 37 °C, with: [3H]-L-serine 150 µM; relative to: basal uptake).
`KKLTVWI`: “time to visible turbidity” roughly 6 h (Alpha-synuclein (SNCA, Homo sapiens, UniProt P37840); aggregation; peptide; 2 molar equivalents, pH 7.5, 37 °C, 1.5% HFIP).
O=Cc1ccc(COc2ccc(Cl)cc2)o1 gave a P50 change of 13.2 ± 5.2% (HBA1 with sickle beta chain; oxygen affinity; sickle red cell lysate; 2000 µM; relative to: untreated).
For CN(C)c1cccc2c(S(=O)(=O)Nc3ccc(C=CC(=O)O)cc3)cccc12, the kinact was 0.00333 ± 0.0005 s⁻¹ (Peptidylglycine alpha-amidating monooxygenase, PHM domain (Pam, Rattus norvegicus, UniProt P14925); inactivator; pH 6.0, 37 °C, with: 5.0 mM ascorbate).
O=C(O)/C=C/c1ccccc1O — result for “UV signal reduction”: 75.9 ± 0.3% (PY04617 (Plasmodium yoelii, UniProt Q7RFT5); ultrafiltration HPLC-UV; 0.1 mM, pH 7.25, 4 °C, 6.5% DMSO, with: methionine competitor).
For CCC/C=C/COC(C)=O, “remaining 1-NPN fluorescence” read 95.4 ± 1.9% (chemosensory protein 3 (Chilo suppressalis, UniProt V9PY40); binding, competitive ligand, fluorescence competitive binding; highest concentration tested, pH 7.4, protein 2 µM, with: 1-NPN 2 µM; relative to: no ligand).
For COC(=O)c1scc(C)c1NC(=O)C(C)N1CCN(CC2CC2)CC1 (centres unmarked), “capacity factor k′” read 5.4 (SCN9A; cell membrane chromatography; higher = stronger binding).
CC(=O)N[C@H](Cc1ccc(I)cc1)C(=O)N[C@H](Cc1ccc2ccccc2c1)C(=O)N[C@@H](Cc1ccc2ccccc2c1)C(=O)N[C@@H](CCCNC(=N)N)C(N)=O has an Emax of 20% (Melanocyte-stimulating hormone receptor (Mc1r, Mus musculus, UniProt Q01727); cAMP, agonist, AlphaScreen; HEK293).
COc1ccc(CNC(=O)c2ccc3c(c2)C(=O)c2ccccc2C3=O)cc1: AC50 “inactive” (D(2) dopamine receptor (DRD2, Homo sapiens, UniProt P14416); calcium mobilization, antagonist; HEK293 T-REx D2 Gqi5; up to 77 µM).
For CSc1ccc(/C=C2/C(C)=C(CC(=O)O)c3cc(F)ccc32)cc1, IC50 read “inactive” (Dual specificity calcium/calmodulin-dependent 3',5'-cyclic nucleotide phosphodiesterase 1B (Homo sapiens, UniProt Q01064); cGMP hydrolysis, inhibitor; up to 200 µM).
C[N+](C)(C)C[C@@H](O)CC(=O)[O-] has an inhibition of 89.9% (Organic cation/carnitine transporter 2 (SLC22A5, Homo sapiens, UniProt O76082); transporter uptake, inhibitor; 200 µM).
The remaining fluorescence of CCc1ccc(CCOc2ccc(CC3SC(=O)NC3=O)cc2)nc1 (centres unmarked) is reported as less than 18% (Fatty acid-binding protein, liver (FABP1, Homo sapiens, UniProt P07148); binding, DAUDA displacement; with: DAUDA).
COc1ccc(OCC2c3cc(OC)c(OC)cc3CCN2C(=O)c2cccc(Cl)c2)cc1 (centres unmarked): “open time constant 1” 0.036 ± 0.003 ms (Glutamate receptor ionotropic, NMDA 2D, with NR1 (Rattus norvegicus, UniProt Q62645); outside-out patch clamp; 10 µM, with: GluN1 co-expressed).
Under “agonist and antagonist activity”, CC(=O)N[C@@H](Cc1cccs1)C(=O)N[C@H](Cc1ccccc1)C(=O)N[C@@H](CCCNC(=N)N)C(=O)N[C@@H](Cc1csc2ccccc12)C(N)=O is recorded as “inactive” (Melanocortin receptor 3 (Mus musculus, UniProt P33033); receptor activity, agonist, cell-based; up to 100 µM, Schild antagonism analysis).
For COC(=O)c1scc(C)c1NC(=O)C(C)N1CCN(C(C)C)CC1 (centres unmarked), “capacity factor k′” read 94 (SCN9A; cell membrane chromatography; higher = stronger binding).
The inhibition of COc1cc2oc(-c3ccc(O)cc3)cc(=O)c2c(O)c1OC is reported as 45.1% (MAL12; enzyme activity, inhibitor, absorbance; 25 µM).
The IC50 of CCCCCC(O)/C=C/C=O (centres unmarked) is reported as 51.8 µM (Endoplasmic reticulum chaperone BiP (HSPA5, Homo sapiens, UniProt P11021); ATPase activity, covalent inhibitor; 1 h preincubation, pH 7.4, 37 °C, estimated value, with: ATP 0.1 mM).
CCOCc1ccc(C=O)o1 has a P50 change of 39.8 ± 0.8% (HBA1 with sickle beta chain; oxygen affinity; sickle red cell lysate; 2 mM; relative to: untreated).
With C=C(C)CCOP(=O)(O)OP(=O)(O)O the Ki was 292 ± 39 µM (Isopentenyl-diphosphate delta-isomerase (fni, Streptococcus pneumoniae serotype 4, UniProt Q97SH8); substrate; pH 7.0, 37 °C, substrate inhibition, with: 8 µM FMN and NADPH).
For COC(=O)c1scc(C)c1NC(=O)C(C)N1C(C)COCC1C (centres unmarked), “capacity factor k′” read 5.8 (SCN9A; cell membrane chromatography; higher = stronger binding).
With COc1cc2c(=O)c(OC)c(-c3ccccc3)oc2c(O)c1OC the inhibition was 20.4% (MAL12; enzyme activity, inhibitor, absorbance; 25 µM).
CC(C)C[C@@H](N)[C@H](O)C(=O)N[C@H](C(=O)N[C@H](C(=O)N[C@@H](CC(=O)O)C(=O)O)C(C)C)C(C)C has an ANG-(1-7) formation of 33.1 ± 2.9 pg/glomerulus (Glutamyl aminopeptidase (Enpep, Rattus norvegicus, UniProt P50123); inhibitor, MALDI-TOF MS; isolated rat glomeruli; 100 µM, 60 min, 37 °C, with: ANG-I 1 µM).
CC1=C(C(=O)OCc2ccccc2)C(c2ccc(-c3ccccc3)cc2)NC(=S)N1CCCCCc1nnn[nH]1 (centres unmarked): “fold change in activity” -1.7 fold (Heat shock 70 kDa protein 1A, with Hdj2 (HSPA1A, Homo sapiens, UniProt P0DMV8); ATPase activity, inhibitor; 100 µM, Hsp40-stimulated activity, with: Hdj2 Hsp70:Hsp40 1:0.5; relative to: DMSO, negative means inhibition).
CCCCCCCCC(=O)N[C@H]1CCNC1=O — result for IC50: “inactive” (N-acylethanolamine-hydrolyzing acid amidase (NAAA, Homo sapiens, UniProt Q02083); enzyme activity, inhibitor, fluorogenic PAMCA hydrolysis; pH 4.5, with: 5 µM PAMCA).
With O=C[C@H](O)[C@@H](O)[C@@H](O)[C@H](O)CO the ΔG was -6 ± 0.3 kcal/mol (PA-I galactophilic lectin (lecA, Pseudomonas aeruginosa, UniProt Q05097); isothermal titration calorimetry; pH 7.5, 25 °C, with: 25 mM CaCl2).
Cc1[nH]c(N)nc1CCC(=O)c1cc(F)cc(F)c1: “fast inhibition component” “increased” (Voltage-gated hydrogen channel 1 (HVCN1, Homo sapiens, UniProt Q96D96, F150A); proton current, inside-out patch; 100 nM; relative to: wild type).
COc1cc(-c2cc(=O)c3ccc(O)c(OC)c3o2)cc(O)c1OC has an inhibition of 72.6% (MAL12; enzyme activity, inhibitor, absorbance; 50 µM).
Under IC50, Clc1cccc(Nc2nnc(-c3ccccc3)c3ccccc23)c1 is recorded as “inactive” (Dual specificity calcium/calmodulin-dependent 3',5'-cyclic nucleotide phosphodiesterase 1C (PDE1C, Homo sapiens, UniProt Q14123); cAMP hydrolysis, inhibitor, fluorescence polarization; recombinant enzyme; up to 100 µM, 30 min preincubation, 30 °C, with: fluorescein-cAMP 25 nM).
CC(C)C[C@H](NC(=O)[C@@H](NC(=O)[C@@H](N)[C@@H](C)O)C(C)C)C(=O)N1CCC[C@H]1C(=O)N1CCC[C@H]1C(=O)N1CCC[C@H]1C(=O)N1CCC[C@H]1C(=O)N[C@@H](Cc1ccc(O)cc1)C(=O)N[C@@H](CCCNC(=N)N)C(=O)N[C@@H](Cc1c[nH]cn1)C(=O)N[C@@H](C)C(=O)N[C@@H](CC(N)=O)C(=O)O — result for “entropy term TΔS”: 0.52 ± 0.39 kcal/mol (WWOX WW1 domain; binding to WW1 domain, isothermal titration calorimetry; pH 7.0, 25 °C).
`Ac-RRWRIFKFISAHNP-NH2 (N-acetyl, C-amide)` — result for phosphorylation: “not detected” (Dual specificity mitogen-activated protein kinase kinase 6 (MAP2K6, Homo sapiens, UniProt P52564, S207E/T211E); substrate, HPLC and MALDI-TOF MS; peptide; 100 to 500 µM, 40 h, pH 7.5, room temperature, with: ATP 1 mM).
For CC(C)C[C@H](NC(=O)[C@@H](NC(=O)[C@@H](N)[C@@H](C)O)C(C)C)C(=O)N1CCC[C@H]1C(=O)N1CCC[C@H]1C(=O)N1CCC[C@H]1C(=O)N[C@@H](C)C(=O)N[C@@H](Cc1ccc(O)cc1)C(=O)N[C@@H](CCCNC(=N)N)C(=O)N[C@@H](Cc1c[nH]cn1)C(=O)N[C@@H](CCCNC(=N)N)C(=O)N[C@@H](CC(N)=O)C(=O)O, “binding free energy ΔG” read -4.84 ± 0.08 kcal/mol (WWOX WW1 domain; binding to WW1 domain, isothermal titration calorimetry; pH 7.0, 25 °C).
For `DDLKQKACESRCTKL`, “patients with IgE binding” read 0% (human IgE; peptide microarray; peptide, walnut-allergic patient sera; concentration not given, 16 h, 4 °C).
CC(C)C[C@H](NC(=O)[C@H](C)NC(=O)[C@@H](N)[C@@H](C)O)C(=O)N1CCC[C@H]1C(=O)N1CCC[C@H]1C(=O)N1CCC[C@H]1C(=O)N1CCC[C@H]1C(=O)N[C@@H](Cc1ccc(O)cc1)C(=O)N[C@@H](CCCNC(=N)N)C(=O)N[C@@H](Cc1c[nH]cn1)C(=O)N[C@@H](CCCNC(=N)N)C(=O)N[C@@H](CC(N)=O)C(=O)O — result for “binding free energy ΔG”: -5.4 ± 0.11 kcal/mol (WWOX WW1 domain; binding to WW1 domain, isothermal titration calorimetry; pH 7.0, 25 °C).
With Cc1c2cc[n+](CCN3CCCCC3)cc2c(C)c2c1[nH]c1ccc(O)cc12 the IC50 was 13 µM (T1, RNA repeat, r(CGG) repeat (Homo sapiens); DGCR8 displacement, competitor, TR-FRET; pH 7.5, 110 mM KCl, with yeast tRNA, with: DGCR8 protein).
Cc1ccc(C(=O)Nc2ccc3ccccc3c2)o1: “effect on acid-evoked current” “decreased” (Otop1 (Mus musculus, UniProt Q80VM9, E226A); whole-cell patch-clamp; concentration not given, pH 6.0; relative to: wild type).
COC(=O)c1scc(C)c1NC(=O)CN1CCN(C(C)C)CC1: “capacity factor k′” 3 (SCN9A; cell membrane chromatography; higher = stronger binding).

Excerpt of the above:
O=Cc1ccc(COc2ccc(Cl)cc2)o1 gave a P50 change of 13.2 ± 5.2% (HBA1 with sickle beta chain; oxygen affinity; sickle red cell lysate; 2000 µM; relative to: untreated).
For CCC/C=C/COC(C)=O, “remaining 1-NPN fluorescence” read 95.4 ± 1.9% (chemosensory protein 3 (Chilo suppressalis, UniProt V9PY40); binding, competitive ligand, fluorescence competitive binding; highest concentration tested, pH 7.4, protein 2 µM, with: 1-NPN 2 µM; relative to: no ligand).
COC(=O)c1scc(C)c1NC(=O)CN1CCN(C(C)C)CC1: “capacity factor k′” 3 (SCN9A; cell membrane chromatography; higher = stronger binding).
